# Results collected from several papers.
# Parts stem from different laboratories: compare values within a part only. Changes are numbered by the printed parent chain.

# Study 1 — target: CCNB1, cyclin fold, Cln2 fusion (human); method: yeast growth competition, sequencing; matrix: yeast; notes: weak parent motif; reference: not given; direction: higher = stronger binding
# Starting sequence: WEE1 docking peptide (human); HKTFRKLRLFDTP
Variant,normalised enrichment score
L7A,0.117
D11Y,0.228
T12M,1.04
F4I,0.634
D11N,-0.614
D11F,0.347
K6I,1.02
F4Q,0.0555
T3F,0.106
F4D,0.519
R5Q,0.451
K6C,0.403
F4A,0.502
R8I,0.706
T12H,1.02
L9C,0.329
K6T,0.431
F10H,0.613
F10I,0.659
T3C,-0.121
R5K L9F,0.151

# Study 2 — method: protein-binding microarray; molecule type: double-stranded DNA, one strand shown; matrix: in vitro; tested at: 250 nM; notes: 60-bp whole probe; with: salmon DNA 0.4 mg/ml; reference: random background probes; direction: higher = stronger binding; shared flanks, not repeated: GCCTAGCAC … GTCTTGATTCGCTTGACGCTGCTG
# Target: Interferon regulatory factor 5, full length, phosphomimetic (IRF5, Homo sapiens, UniProt Q13568-2, residues 1-514, K96S/S451D/S453D/S456D/S462D)
Strand,log fluorescence [z-score]
GGCGGTATCCTTATCCTGACGTGCTAG,-0.108
CACCCTTGGAAGTATGACTCTGTGCTA,0.141
CACGGTTTCGACTATCGGGACGTGCTA,6.69
GTCGGTATCCTTATCCTGACGTGCTAG,0.254
ACATTCCATGAGCCCACTGGGTGCTAG,-0.195
TCAACTTTTATTTTCAGACTGTGCTAG,1.24
GACGATATCAGTCGCGAGACGTGCTAG,0.692
TTAGGTATCGGACTGGGTTCGTGCTAG,1.42
TTAGGTATCGGGTTTCGTTTAGTGCTA,6.29
TTAGGTTTCCTATTGCTTTAGTGCTAG,1.08
TGTGGCTTAGCTGTCACCTCGTGCTAG,-0.599
TCAATTTTCTGAATGCCACTGTGCTAG,1.07
GACGAGCTCAGTCTCGAGACGTGCTAG,-0.282
GTAGGTATCGGTCTCGGTTAGTGCTAG,6.86
TTCTGATTGAATCTCCCATTGTGCTAG,0.646
GACGCTATCGGGTATCGAGACGTGCTA,3.93
TCATCATTATTGTGTCAAACTGTGCTA,0.959
TCACATACTGATTTCCAACTGTGCTAG,0.393
TTAGGACTGCTTATCCTTTTGTGCTAG,-0.0631
GACGGACGGGGGTTTCGGGACGTGCTA,2.84

# Study 3 — method: RNA Bind-n-Seq; molecule type: RNA; matrix: in vitro; tested at: 365 nM; reference: no-protein control; direction: higher = stronger binding
# Target: RNA binding protein fox-1 homolog 2, RRM domain, GST-SBP tag (RBFOX2, Homo sapiens, UniProt O43251-10, residues 100-194)
# Notes: natural RNA segment, single round, ends assumed
# Shared flanks, not repeated: GGGAGUUCUACAGUCCGACGAUC … UGGAAUUCUCGGGUGCCAA
# Residues (chain): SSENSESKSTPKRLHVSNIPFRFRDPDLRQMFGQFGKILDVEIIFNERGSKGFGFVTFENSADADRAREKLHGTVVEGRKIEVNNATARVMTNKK
Strand,RBNS enrichment (R)
GUGGUUUGUGACAUGGCAGAUCAGAAGUGCCUCCUUGUAGGUUCAUUGGUCUCUGGAAUAAGUGCCAGCCUUUUUGCCAUAGUUGACUUGCUUCCAUAUUGGAGCUCCUC,0.337
UAUUAAAAUAUAUUUUAUAUUUUAUUCAUUAAUAUAACAACAAUCCUAUCAGGAAAAGUUUCUAGAAAGCCAACGAGGGUCAGUAGUUUAGUGUCAUUCCUGGAAUUAAC,0.91
ACUACUGUAGGGCACAAUGACUUUUCUUUUCCCGUUUAAUUAGGCAAUACCCUUGUUAAUUGCCCGUUGGCAACUAACUUAAUCAUGUGCUUCCAACACACUAAAUAGGG,0.348
GUUACAAGAAUGUGGCAAUUCUAUUUGUCCAAGAGCAUUCUUACACAACUUUCUUUUGUAAAUUUUUCUUUCAUGCCAAAAAACAUGCGGGCAAUUUGUUGAUGAGGUGA,0.446
UCUUUAUAAGAGAAUAGAGGCAAAAGUAUAGAACUGAGGAUCAUUUGUAUUUUUGAGUUGGAAAUUAUGAAACUUCACCAUAUUAUGAUCAUACAUAUUUUGAAGAACAG,0.623
AAUCAGGUAGGAAAUCACCUUUGACUUAGCUUCCAGUAGUCAUUACCACCUUUUACUGCACAAUUCACAAGCAUGUUUUCCUGGUGAAUUGGACUGAAAAUUACAUUUUG,11.7
ACUAUAUUGUCGUGUGGGUGUGUGUCUGCACCCACAUCCUCACACAUUGAUCUAGAUCUGCCUUUAUCCACUCGAAUUAUAAACAGCUCGGCUUGUCCUUGUCCCAUGUG,0.385
UAGAGACAGGGUUUCACCAUGUUGGCCAGGAUGGUCUUGAUCUCUUGACCUCGUGAUCCGCCCACCUUGGCCUCCCAAAGUGCUGGAUUACAGGUGUGAGCCACCGUGCC,0.331
UCUGAAAGAGUCACAUUUUGUCAAAAAUCUGAAAAGUAUGCAAUUUGUACAACUCUUACUUUCUAUGUGAUAAGAAUGCAAUAUGUGCCUCUUUCCCCUACUAGCCCCAU,0.439
UAGUGCCCAAGCCUGGUCGUGUUGCCAGGAGUGGUGACAAGAAAUGCAGCUUACAUCAAACGAACAUGUAGUGCAUGCCCACUGCCUGAUGGCCAGAUGGCCUGUAGGAA,1.83
UGUUAUGAAAUAUUUUUACUAUGACUCCUUCAACAACUAAAUACGAACUGCCUGUUCUCUAAACCUCAAGGAGAAAAACUGGAGUUAAUGGGUAAUAAGGUGCAAAAUAA,0.559
ACUUUGUACAAAUUUUGUCAUGCUGGAUGUUAACACAUCUUACUCUAAAUAAACAAGGUGUUGCCACUUUGUAGCACGAAGGAUCUCUAACCCGGGUCUGCGUCUUCACU,0.231

# Study 4 — method: protein binding microarray; molecule type: double-stranded DNA, one strand shown; matrix: in vitro; tested at: not given; reference: not given; direction: higher = stronger binding
# Target: Histone acetyltransferase KAT6A, both winged helices, GST fusion (KAT6A, Homo sapiens, UniProt Q92794, residues 1-181)
# Notes: 8-mer, flanks averaged, mean of 2 arrays, mostly near background
# Residues (chain): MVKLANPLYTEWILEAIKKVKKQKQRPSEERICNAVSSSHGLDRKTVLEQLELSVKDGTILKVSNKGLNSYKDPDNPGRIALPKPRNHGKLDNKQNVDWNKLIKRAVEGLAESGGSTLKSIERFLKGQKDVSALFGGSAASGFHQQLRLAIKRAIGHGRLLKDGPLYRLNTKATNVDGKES
Strand,E-score
AATTAGTC,-0.0388
AGGCTCGC,0.0695
CAAGAGAA,-0.0424
ATAAATGA,-0.15
CATGAGAC,-0.0235
ATACCCTA,-0.282
AGGTTAGC,-0.0467
CTGAAAAG,-0.0408
CCCAAGGG,-0.17
GCTAAGAA,-0.151
CCACGTTC,-0.0218
AATAGTTA,-0.0127
CATTTCAG,-0.143
AGATCTGC,-0.198
CGATCTTC,0.108
GTAGCTGA,-0.0339
CATCGCAA,-0.0532
ATTGACTC,-0.16
GCGCGCGC,0.443
AAGTAACA,-0.143
CCGGGTAA,0.105
AGTCTCTG,-0.236
ATCCGTTC,0.19
CGGGGGAG,-0.0233
ATAGAATA,-0.0529

# Study 5 — method: DHFR PCA, dose-response; matrix: yeast; notes: Hill fit, mean, not affinity; with: (+)-ABA, dose series; direction: lower = more sensitive
# Target: ABI1, truncated, D143A, DHFR fusion (Arabidopsis thaliana, UniProt P49597)
# Starting sequence: PYL1, truncated, DHFR fusion (Arabidopsis thaliana, UniProt Q8VZS8); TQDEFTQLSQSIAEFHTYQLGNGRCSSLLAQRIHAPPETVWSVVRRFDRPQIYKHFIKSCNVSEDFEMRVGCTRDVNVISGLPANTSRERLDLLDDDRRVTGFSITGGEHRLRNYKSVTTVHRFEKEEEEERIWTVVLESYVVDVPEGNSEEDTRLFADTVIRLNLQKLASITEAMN
Variant,ABA EC50
D159K,195 µM
V136I,1.1 µM
V145K,27.8 µM
Y18P,2.96 µM
M176H,3.3 µM
Q167C,2.6 µM
E125F,1.46 µM
L166H,13.3 µM
R32T,2.31 µM
L93M,1.41 µM
M68N,4.41 µM
S63F,20.9 µM
E125I,1.55 µM
N22I,1.99 µM
E130F,5.28 µM
I79T,10.1 µM

# Excerpt of the above (study 4):
Strand,E-score
CATGAGAC,-0.0235
CCGGGTAA,0.105
AATTAGTC,-0.0388
CCCAAGGG,-0.17
AGGTTAGC,-0.0467
AGATCTGC,-0.198
ATTGACTC,-0.16
CGATCTTC,0.108
CTGAAAAG,-0.0408
